Results collected from several papers.
Compare with care: the assays were run in different laboratories.

Molecule | tested on | test | system | conditions | scale | measurement | value
CCNc1n[n+]([O-])c2cc3c(cc2[n+]1[O-])CCC3 | Mycobacterium tuberculosis |  | ATCC 35822, isoniazid-resistant | 168 h |  | MIC | 2.5 µg/mL
O=C(OCc1ccccc1)c1coc(-c2ccccc2)n1 | Mycobacterium tuberculosis |  | clinical, drug-sensitive, MDR and XDR |  |  | MIC | 1 to 9 µM
YLIALAVCQV | HLA-A2 | flow cytometry | peptide, T2 cells | concentration not given | relative to: cpd over flu peptide | relative binding concentration | 10 to 16 fold
O=C(NC12CC3CC(CC(C3)C1)C2)c1ccc2ccccc2c1 | Mycobacterium tuberculosis | microbial growth, resazurin | H37RV |  |  | MIC | 7.11 µM
Clc1ccc(-c2cc(CNC34CC5CC(CC(C5)C3)C4)no2)s1 | Influenza A virus | viral replication, plaque | A/Switzerland/9715293/2013 (H3N2), amantadine-resistant |  |  | EC50 | 100 to 200 nM

Some of these lines once more:
Molecule | tested on | test | system | conditions | scale | measurement | value
Clc1ccc(-c2cc(CNC34CC5CC(CC(C5)C3)C4)no2)s1 | Influenza A virus | viral replication, plaque | A/Switzerland/9715293/2013 (H3N2), amantadine-resistant |  |  | EC50 | 100 to 200 nM
